Measurements gathered from unrelated publications.
Each line is one published result; not all experiments were run side by side.
U2AF2: U2AF2 148-342 (Homo sapiens, UniProt P26368)
Chain of UniProt P26368 (whole entry, looked up): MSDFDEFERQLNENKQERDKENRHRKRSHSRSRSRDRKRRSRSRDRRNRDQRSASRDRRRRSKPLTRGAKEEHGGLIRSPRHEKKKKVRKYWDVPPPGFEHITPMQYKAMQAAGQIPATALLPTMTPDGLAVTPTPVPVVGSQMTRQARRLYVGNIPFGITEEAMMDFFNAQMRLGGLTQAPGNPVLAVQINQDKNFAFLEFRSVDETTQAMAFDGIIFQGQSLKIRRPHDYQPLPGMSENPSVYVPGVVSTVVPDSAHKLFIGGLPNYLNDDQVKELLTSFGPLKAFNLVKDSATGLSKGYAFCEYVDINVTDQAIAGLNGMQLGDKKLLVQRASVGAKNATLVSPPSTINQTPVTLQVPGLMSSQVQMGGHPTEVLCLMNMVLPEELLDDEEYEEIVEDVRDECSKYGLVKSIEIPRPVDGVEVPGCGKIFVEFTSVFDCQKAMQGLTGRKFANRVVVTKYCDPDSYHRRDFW
B1: SSBP1 19-148 (Homo sapiens, UniProt Q04837); chain ETTTSLVLERSLNRVHLLGRVGQDPVLRQVEGKNPVTIFSLATNEMWRSGDSEVYQLGDVSQKTTWHRISVFRPGLRDVAYQYVKKGSRIYLEGKIDYGEYMDKNNVRRQATTIIADNIIFLSDQTKEKE
B2: SH3GL2 G276V (Homo sapiens, UniProt Q99962); sequence looked up; chain MSVAGLKKQFHKATQKVSEKVGGAEGTKLDDDFKEMERKVDVTSRAVMEIMTKTIEYLQPNPASRAKLSMINTMSKIRGQEKGPGYPQAEALLAEAMLKFGRELGDDCNFGPALGEVGEAMRELSEVKDSLDIEVKQNFIDPLQNLHDKDLREIQHHLKKLEGRRLDFDYKKKRQGKIPDEELRQALEKFDESKEIAESSMFNLLEMDIEQVSQLSALVQAQLEYHKQAVQILQQVTVRLEERIRQASSQPRREYQPKPRMSLEFPTGDSTQPNGVLSHTGTPKPSGVQMDQPCCRALYDFEPENEGELGFKEGDIITLTNQIDENWYEGMLHGHSGFFPINYVEILVALPH
B3: unc-83 1-305 (Caenorhabditis elegans, UniProt Q23064); sequence looked up; chain MDVMDSFSEVEMPNDISSEDHLLKVIESSAEEVDIFLENCSSLYNLILDSLHNLTSKTISCECLDEMTSTLEKSAKKILAERPEAENSVLLRLNTICCAMDQLRVQHNSRMMSGADSDTASSARSSTSSSTGEMRLWLHEVERRLEINEKRIRVEPNLQLLLSDQQALQLEIQHEGQLLVNRLNKQIKDDHDSDSSEEEKRKTCVDAIRKRWHTIYLNSLSLVCRIEELINHQQASEDSESDPDLVGPPIKRARIRTVGHLTASDTEESEADEEDRHSQTETVVTEDDNVLPFAENEYESIMDGR
B4: CEACAM1 35-141 (Homo sapiens, UniProt P13688-1); sequence looked up; chain QLTTESMPFNVAEGKEVLLLVHNLPQQLFGYSWYKGERVDGNRQIVGYAIGTQQATPGPANSGRETIYPNASLLIQNVTQNDTGFYTLQVIKSDLVNEEATGQFHVY
B5: Ikbkg 251-355 (Mus musculus, UniProt O88522); sequence looked up; chain MQLEDLRQQLQQAEEALVAKQELIDKLKEEAEQHKIVMETVPVLKAQADIYKADFQAERHAREKLVEKKEYLQEQLEQLQREFNKLKVGCHESARIEDMRKRHVE
B6: proteasome subunit alpha-8 (human); sequence looked up; chain MASRYDRAITVFSPDGHLFQVEYAQEAVKKGSTAVGIRGTNIVVLGVEKKSVAKLQDERTVRKICALDDHVCMAFAVLTIFIGLTADARVVINRARVECQSHKLTVEDPVTVEYITRFIATLKQKYTQSNGRRPFGISALIVGFDDDGISRLYQTDPSGTYHAWKANAIGRSAKTVREFLEKNYTEDAIASDSEAIKLAIKALLEVVQSGGKNIELAIIRRNQPLKMFSAKEVELYVTEIEKEKEEAEKKKSKKSV
B7: cooS 1-639 C49S (Rhodospirillum rubrum, UniProt P31896); chain MTHHDCAHCSSDACATEMLNLAEANSIETAWHRYEKQQPQCGFGSAGLSCRICLKGPCRIDPFGEGPKYGVCGADRDTIVARHLVRMIAAGTAAHSEHGRHIALAMQHISQGELHDYSIRDEAKLYAIAKTLGVATEGRGLLAIVGDLAAITLGDFQNQDYDKPCAWLAASLTPRRVKRLGDLGLLPHNIDASVAQTMSRTHVGCDADPTNLILGGLRVAMADLDGSMLATELSDALFGTPQPVVSAANLGVMKRGAVNIAVNGHNPMLSDIICDVAADLRDEAIAAGAAEGINIIGICCTGHEVMMRHGVPLATNYLSQELPILTGALEAMVVDVQCIMPSLPRIAECFHTQIITTDKHNKISGATHVPFDEHKAVETAKTIIRMAIAAFGRRDPNRVAIPAFKQKSIVGFSAEAVVAALAKVNADDPLKPLVDNVVNGNIQGIVLFVGCNTTKVQQDSAYVDLAKSLAKRNVLVLATGCAAGAFAKAGLMTSEATTQYAGEGLKGVLSAIGTAAGLGGPLPLVMHMGSCVDNSRAVALATALANKLGVDLSDLPLVASAPECMSEKALAIGSWAVTIGLPTHVGSVPPVIGSQIVTKLVTETAKDLVGGYFIVDTDPKSAGDKLYAAIQERRAGLGL
B8: TBK1 D33A/D135N (Homo sapiens, UniProt Q9UHD2); sequence looked up; chain MQSTSNHLWLLSDILGQGATANVFRGRHKKTGALFAIKVFNNISFLRPVDVQMREFEVLKKLNHKNIVKLFAIEEETTTRHKVLIMEFCPCGSLYTVLEEPSNAYGLPESEFLIVLRDVVGGMNHLRENGIVHRNIKPGNIMRVIGEDGQSVYKLTDFGAARELEDDEQFVSLYGTEEYLHPDMYERAVLRKDHQKKYGATVDLWSIGVTFYHAATGSLPFRPFEGPRRNKEVMYKIITGKPSGAISGVQKAENGPIDWSGDMPVSCSLSRGLQVLLTPVLANILEADQEKCWGFDQFFAETSDILHRMVIHVFSLQQMTAHKIYIHSYNTATIFHELVYKQTKIISSNQELIYEGRRLVLEPGRLAQHFPKTTEENPIFVVSREPLNTIGLIYEKISLPKVHPRYDLDGDASMAKAITGVVCYACRIASTLLLYQELMRKGIRWLIELIKDDYNETVHKKTEVVITLDFCIRNIEKTVKVYEKLMKINLEAAELGEISDIHTKLLRLSSSQGTIETSLQDIDSRLSPGGSLADAWAHQEGTHPKDRNVEKLQVLLNCMTEIYYQFKKDKAERRLAYNEEQIHKFDKQKLYYHATKAMTHFTDECVKKYEAFLNKSEEWIRKMLHLRKQLLSLTNQCFDIEEEVSKYQEYTNELQETLPQKMFTASSGIKHTMTPIYPSSNTLVEMTLGMKKLKEEMEGVVKELAENNHILERFGSLTMDGGLRNVDCL
B9: TGFBI FAS1-4 domain, residues 502-657 R555Q (Homo sapiens, UniProt Q15582); chain AGMGTVMDVLKGDNRFSMLVAAIQSAGLTETLNREGVYTVFAPTNEAFRALPPREQSRLLGDAKELANILKYHIGDEILVSGGIGALVRLKSLQGDKLEVSLKNNVVSVNKEPVAEPDIMATNGVVHVITNVLQPPANRPQERGDELADSALEIFKQA
B10: BcsB/BcsC TPR1-4 fused to BcsB (Escherichia coli); chain VEAAPTAQQQLLEQVRLGEATHREDLVQQSLYRLELIDPNNPDVVAARFRSLLRQGDIDGAQKQLDRLSQLAPSSNAYKSSRTTMLLSTPDGRQALQQARLQATTGHAEEAVASYNKLFNGAPPEGDIAVEYWSTVAKIPARRGEAINQLKRINADAPGGSGSGSGVQGADAPVVAQNGPSRDVKLTFAQIAPPPGSMVLRGINPNGSIEFGMRSDEVVTKAMLNLEYTPSPSLLPVQSQLKVYLNDELMGVLPVTKEQLGKKTLAQMPINPLFISDFNRVRLEFVGHYQDVCEKPASTTLWLDVGRSSGLDLTYQTLNVKNDLSHFPVPFFDPSDNRTNTLPMVFAGAPDVGLQQASAIVASWFGSRSGWRGQNFPVLYNQLPDRNAIVFATNDKRPDFLRDHPAVKAPVIEMINHPQNPYVKLLVVFGRDDKDLLQAAKGIAQGNILFRGESVVVNEVKPLLPRKPYDAPNWVRTDRPVTFGELKTYEEQLQSSGLEPAAINVSLNLPPDLYLMRSTGIDMDINYRYTMPPVKDSSRMDISLNNQFLQSFNLSSKQEANRLLLRIPVLQGLLDGKTDVSIPALKLGATNQLRFDFEYMNPMPGGSVDNCITFQPVQNHVVIGDDSTIDFSKYYHFIPMPDLRAFANAGFPFSRMADLSQTITVMPKAPNEAQMETLLNTVGFIGAQTGFPAINLTVTDDGSTIQGKDADIMIIGGIPDKLKDDKQIDLLVQATESWVKTPMRQTPFPGIVPDESDRAAETRSTLTSSGAMAAVIGFQSPYNDQRSVIALLADSPRGYEMLNDAVNDSGKRATMFGSVAVIRESGINSLRVGDVYYVGHLPWFERVWYALANHPILLAVLAAISVILLAWVLWRLLRIISRRRLNPDNE
B11: SiRe_0131 (Saccharolobus islandicus, UniProt F0NG80); sequence looked up; chain MEKIVKVNDTTYILEDERSVVITFKLEENILSMVDEIVKKLGYDYRSDFIRDAIEKYINYLKSSSNNSKMNINE
B12: dnaD R73A (Bacillus subtilis, UniProt P39787); chain GSHMKKQQFIDMQEQGTSTIPNLLLTHYKQLGLNETELILLLKIKMHLEKGSYFPTPNQLQEGMSISVEECTNRLAMFIQKGFLFIEECEDQNGIKFEKYSLQPLWGKLYEYIQLAQNQTQERKAEGEQKSLYTIFEEEFARPLSPLECETLAIWQDQDQHDAQLIKHALKEAVLSGKLSFRYIDRILFEWKKNGLKTVEQAKIHSQKFRRVQAKQNEPQKEYKRQVPFYNWLEQ
B13: MIB1 936-1006 (Homo sapiens, UniProt Q86YT6); sequence looked up; chain KDKDNTNVNADVQKLQQQLQDIKEQTMCPVCLDRLKNMIFLCGHGTCQLCGDRMSECPICRKAIERRILLY
B14: groES (Escherichia coli, UniProt P0A6F9); chain MNIRPLHDRVIVKRKEVETKSAGGIVLTGSAAAKSTRGEVLAVGNGRILENGEVKPLDVKVGDIVIFNDGYGVKSEKIDNEEVLIMSESDILAIVEA
Chain of UniProt Q8S403 (whole entry, looked up): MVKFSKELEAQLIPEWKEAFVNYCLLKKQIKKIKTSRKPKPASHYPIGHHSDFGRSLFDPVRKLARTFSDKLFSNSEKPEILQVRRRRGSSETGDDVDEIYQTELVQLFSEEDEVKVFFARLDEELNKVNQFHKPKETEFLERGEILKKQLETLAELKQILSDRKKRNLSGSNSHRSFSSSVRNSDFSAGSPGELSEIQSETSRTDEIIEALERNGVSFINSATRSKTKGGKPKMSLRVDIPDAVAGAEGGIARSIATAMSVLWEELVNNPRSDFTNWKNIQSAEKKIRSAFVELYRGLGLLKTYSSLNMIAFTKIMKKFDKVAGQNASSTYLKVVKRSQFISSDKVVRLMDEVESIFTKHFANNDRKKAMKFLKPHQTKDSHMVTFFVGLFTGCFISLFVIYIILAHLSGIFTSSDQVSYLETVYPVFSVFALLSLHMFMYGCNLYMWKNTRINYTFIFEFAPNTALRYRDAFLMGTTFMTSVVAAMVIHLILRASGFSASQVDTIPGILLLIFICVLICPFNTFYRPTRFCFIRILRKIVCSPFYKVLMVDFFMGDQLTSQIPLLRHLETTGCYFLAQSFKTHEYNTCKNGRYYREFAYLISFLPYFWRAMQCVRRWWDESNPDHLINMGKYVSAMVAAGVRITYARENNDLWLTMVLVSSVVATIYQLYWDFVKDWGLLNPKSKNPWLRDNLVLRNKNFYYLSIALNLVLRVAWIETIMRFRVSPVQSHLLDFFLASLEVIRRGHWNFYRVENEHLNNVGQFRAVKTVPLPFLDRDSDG

`B1 (SSBP1 19-148)` — result for “subunits per oligomer”: 4 (itself; SEC).
For `PHO1 (UniProt Q8S403)`, “subunits per oligomer” read 2 (itself; cryo-EM).
`B2 (SH3GL2 G276V)`: “subunits per oligomer” 2 (itself; SEC-SAXS).
`B3 (unc-83 1-305)`: “subunits per oligomer” 2 (itself; mass photometry).
Under “subunits per oligomer”, `B4 (CEACAM1 35-141)` is recorded as 2 (itself; SEC).
`B5 (Ikbkg 251-355)`: “subunits per oligomer” 2 (itself; AUC).
`CACUAGUUC (ssRNA)` gave a Kd of 15.8 µM (U2AF2; sequencing of bound RNA; RNA; motif only).
`CRYBB1 (Homo sapiens, UniProt P53674)` — result for “subunits per oligomer”: 2 (itself; native MS; abundances relative to monomer).
Under “log2 fold change”, `B6 (proteasome subunit alpha-8)` is recorded as 1.08 (CYB5R4 knockout human cells; PP6 interaction, 3xFLAG-PP6C IP-MS; concentration not given; relative to: CYB5R4 KO over parental).
`B7 (cooS 1-639 C49S)` — result for “subunits per oligomer”: 2 (itself; SEC-MALS).
For `B8 (TBK1 D33A/D135N)`, “subunits per oligomer” read 2 (itself; SEC-MALS).
For `B9`, “subunits per oligomer” read 2 (itself; cross-linking).
`B10 (BcsB/BcsC TPR1-4 fused to BcsB)`: “subunits per oligomer” 5 (itself; cryo-EM).
For `B11 (SiRe_0131)`, “subunits per oligomer” read 2 (itself; SEC).
`GAAGUGUCA (ssRNA)` gave a Kd of 3.14 µM (U2AF2; sequencing of bound RNA; RNA; motif only).
Under “subunits per oligomer”, `B12 (dnaD R73A)` is recorded as 2 (itself; SEC).
Under “subunits per oligomer”, `B13 (MIB1 936-1006)` is recorded as 2 (itself; crystal structure).
`GGGEIWKLHEEFLKKFEELLKLHEERLKKM (designed peptide; N-acetyl, C-terminal amide)`: “subunits per oligomer” 3.4 (itself; AUC; peptide).
Under “subunits per oligomer”, `B14 (groES)` is recorded as 7 (itself; cryo-EM).

Excerpt of the above:
For `B8 (TBK1 D33A/D135N)`, “subunits per oligomer” read 2 (itself; SEC-MALS).
For `B9`, “subunits per oligomer” read 2 (itself; cross-linking).
